Published values from different studies.
Numbered parts are unrelated; each lists some results of a single study. Several values in a cell are separate wells, animals, samples, runs or records.
Sequence of UniProt P37173 (whole entry, looked up): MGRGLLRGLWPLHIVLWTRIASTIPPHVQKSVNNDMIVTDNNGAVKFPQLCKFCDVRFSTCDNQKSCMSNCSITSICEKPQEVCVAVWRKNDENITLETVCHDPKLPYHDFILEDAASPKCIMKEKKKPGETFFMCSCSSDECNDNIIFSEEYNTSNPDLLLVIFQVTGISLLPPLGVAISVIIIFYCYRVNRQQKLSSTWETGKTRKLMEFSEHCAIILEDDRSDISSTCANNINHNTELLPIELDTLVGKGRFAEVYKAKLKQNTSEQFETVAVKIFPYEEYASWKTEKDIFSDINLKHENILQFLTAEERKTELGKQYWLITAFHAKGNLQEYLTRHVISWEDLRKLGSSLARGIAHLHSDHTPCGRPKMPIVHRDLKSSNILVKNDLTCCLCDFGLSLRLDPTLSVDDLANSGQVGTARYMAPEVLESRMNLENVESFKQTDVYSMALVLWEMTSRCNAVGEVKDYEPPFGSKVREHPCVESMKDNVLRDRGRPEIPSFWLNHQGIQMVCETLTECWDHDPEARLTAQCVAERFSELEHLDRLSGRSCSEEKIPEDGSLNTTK
Sequence of UniProt Q04912 (whole entry, looked up): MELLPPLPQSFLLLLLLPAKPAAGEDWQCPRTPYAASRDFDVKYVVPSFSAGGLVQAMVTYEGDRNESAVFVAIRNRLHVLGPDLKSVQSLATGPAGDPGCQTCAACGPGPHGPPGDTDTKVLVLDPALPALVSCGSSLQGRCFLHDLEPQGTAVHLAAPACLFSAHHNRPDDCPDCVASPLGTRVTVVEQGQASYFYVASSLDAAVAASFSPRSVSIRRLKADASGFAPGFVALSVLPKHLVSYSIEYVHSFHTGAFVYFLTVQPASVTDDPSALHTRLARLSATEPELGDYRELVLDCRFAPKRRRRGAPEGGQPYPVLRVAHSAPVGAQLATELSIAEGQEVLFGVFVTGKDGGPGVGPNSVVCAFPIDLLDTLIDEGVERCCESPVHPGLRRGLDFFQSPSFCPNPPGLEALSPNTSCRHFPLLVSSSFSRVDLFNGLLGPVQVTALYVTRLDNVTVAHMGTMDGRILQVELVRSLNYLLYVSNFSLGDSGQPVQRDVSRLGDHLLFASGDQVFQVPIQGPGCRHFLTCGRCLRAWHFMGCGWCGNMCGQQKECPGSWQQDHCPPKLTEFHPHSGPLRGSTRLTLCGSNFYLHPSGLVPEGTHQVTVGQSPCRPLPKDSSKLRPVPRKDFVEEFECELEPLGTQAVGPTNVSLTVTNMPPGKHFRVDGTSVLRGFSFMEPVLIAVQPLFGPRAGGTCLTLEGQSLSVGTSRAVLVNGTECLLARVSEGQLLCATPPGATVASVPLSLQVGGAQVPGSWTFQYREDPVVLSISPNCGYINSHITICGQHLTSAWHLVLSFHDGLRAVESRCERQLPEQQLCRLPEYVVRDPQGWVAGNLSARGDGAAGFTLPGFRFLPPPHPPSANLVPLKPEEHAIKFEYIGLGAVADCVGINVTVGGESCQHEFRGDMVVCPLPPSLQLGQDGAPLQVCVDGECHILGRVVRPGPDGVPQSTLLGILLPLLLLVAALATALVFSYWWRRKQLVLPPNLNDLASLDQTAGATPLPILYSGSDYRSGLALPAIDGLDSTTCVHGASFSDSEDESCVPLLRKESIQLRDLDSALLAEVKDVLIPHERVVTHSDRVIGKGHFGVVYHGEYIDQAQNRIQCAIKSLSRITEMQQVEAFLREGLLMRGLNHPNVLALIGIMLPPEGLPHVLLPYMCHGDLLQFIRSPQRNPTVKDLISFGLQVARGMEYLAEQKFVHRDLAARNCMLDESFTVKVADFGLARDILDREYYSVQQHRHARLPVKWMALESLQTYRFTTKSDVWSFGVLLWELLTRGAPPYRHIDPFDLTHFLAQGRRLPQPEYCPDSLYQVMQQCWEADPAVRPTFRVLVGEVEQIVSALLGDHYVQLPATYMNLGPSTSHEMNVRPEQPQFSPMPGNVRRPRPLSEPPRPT
Sequence of UniProt Q59H18 (whole entry, looked up): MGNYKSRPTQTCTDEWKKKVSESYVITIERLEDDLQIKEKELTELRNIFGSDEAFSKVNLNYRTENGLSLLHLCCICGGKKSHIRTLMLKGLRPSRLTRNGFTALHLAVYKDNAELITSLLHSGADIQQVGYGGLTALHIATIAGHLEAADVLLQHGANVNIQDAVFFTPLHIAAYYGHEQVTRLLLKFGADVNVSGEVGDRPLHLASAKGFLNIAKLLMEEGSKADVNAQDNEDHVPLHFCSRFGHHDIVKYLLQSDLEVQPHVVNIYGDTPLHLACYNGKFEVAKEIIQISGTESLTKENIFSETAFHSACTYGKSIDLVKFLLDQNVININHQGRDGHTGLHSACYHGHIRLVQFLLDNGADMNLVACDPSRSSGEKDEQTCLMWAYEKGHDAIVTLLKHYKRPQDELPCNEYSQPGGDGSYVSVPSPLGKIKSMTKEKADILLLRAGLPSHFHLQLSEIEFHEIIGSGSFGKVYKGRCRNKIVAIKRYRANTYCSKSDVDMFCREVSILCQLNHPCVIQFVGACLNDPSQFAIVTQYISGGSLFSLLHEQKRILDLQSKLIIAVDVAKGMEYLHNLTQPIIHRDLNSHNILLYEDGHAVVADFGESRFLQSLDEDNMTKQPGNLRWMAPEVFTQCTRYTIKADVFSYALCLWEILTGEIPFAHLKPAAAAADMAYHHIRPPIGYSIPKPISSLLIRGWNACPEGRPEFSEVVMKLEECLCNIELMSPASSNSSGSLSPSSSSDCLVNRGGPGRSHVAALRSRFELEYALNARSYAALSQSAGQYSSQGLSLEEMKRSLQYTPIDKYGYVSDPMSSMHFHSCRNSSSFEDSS
Sequence of UniProt O95747 (whole entry, looked up): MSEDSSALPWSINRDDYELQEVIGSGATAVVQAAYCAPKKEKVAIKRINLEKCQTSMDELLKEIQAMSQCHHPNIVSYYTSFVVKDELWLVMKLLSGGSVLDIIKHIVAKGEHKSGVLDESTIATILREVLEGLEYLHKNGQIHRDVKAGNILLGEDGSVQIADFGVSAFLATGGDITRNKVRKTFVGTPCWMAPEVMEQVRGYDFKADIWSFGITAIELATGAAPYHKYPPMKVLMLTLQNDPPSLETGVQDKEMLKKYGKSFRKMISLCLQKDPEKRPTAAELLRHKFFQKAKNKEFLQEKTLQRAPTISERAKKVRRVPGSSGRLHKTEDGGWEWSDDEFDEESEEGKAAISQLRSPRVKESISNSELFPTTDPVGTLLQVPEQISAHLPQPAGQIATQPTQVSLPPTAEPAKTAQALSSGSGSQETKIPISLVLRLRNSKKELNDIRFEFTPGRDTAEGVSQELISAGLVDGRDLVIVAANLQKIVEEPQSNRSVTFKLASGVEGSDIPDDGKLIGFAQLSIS
Sequence of UniProt Q13163 (whole entry, looked up): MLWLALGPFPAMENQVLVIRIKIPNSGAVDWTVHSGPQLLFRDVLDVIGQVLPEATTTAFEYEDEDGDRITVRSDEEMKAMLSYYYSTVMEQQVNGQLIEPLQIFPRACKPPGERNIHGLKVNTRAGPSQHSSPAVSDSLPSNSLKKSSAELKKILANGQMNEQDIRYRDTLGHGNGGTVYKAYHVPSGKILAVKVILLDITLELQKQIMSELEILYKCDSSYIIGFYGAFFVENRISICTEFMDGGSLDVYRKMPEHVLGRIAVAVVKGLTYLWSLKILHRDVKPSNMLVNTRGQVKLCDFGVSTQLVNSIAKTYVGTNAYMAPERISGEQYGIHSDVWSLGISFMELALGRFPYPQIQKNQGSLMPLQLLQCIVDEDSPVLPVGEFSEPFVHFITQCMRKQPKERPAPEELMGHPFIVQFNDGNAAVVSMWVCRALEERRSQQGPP
Sequence of UniProt O96017 (whole entry, looked up): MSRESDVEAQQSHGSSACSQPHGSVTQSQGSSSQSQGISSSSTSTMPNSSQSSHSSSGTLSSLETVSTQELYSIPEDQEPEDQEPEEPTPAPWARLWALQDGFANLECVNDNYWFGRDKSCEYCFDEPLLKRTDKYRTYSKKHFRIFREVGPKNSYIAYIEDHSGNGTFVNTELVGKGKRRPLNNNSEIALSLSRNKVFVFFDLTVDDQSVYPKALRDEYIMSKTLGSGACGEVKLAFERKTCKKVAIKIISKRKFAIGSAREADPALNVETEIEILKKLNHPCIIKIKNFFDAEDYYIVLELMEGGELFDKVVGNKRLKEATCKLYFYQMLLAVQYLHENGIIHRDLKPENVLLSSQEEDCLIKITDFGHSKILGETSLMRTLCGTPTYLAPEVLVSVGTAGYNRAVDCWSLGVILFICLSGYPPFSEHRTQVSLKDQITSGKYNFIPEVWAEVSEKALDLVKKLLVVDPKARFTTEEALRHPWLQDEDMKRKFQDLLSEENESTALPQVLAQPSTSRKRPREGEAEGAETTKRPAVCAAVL

Set 1 — read-out: enzyme activity; mode: inhibitor; tested at: 0.5 µM; reference: control; endpoint: remaining activity
Structure (SMILES): Cc1ccc(NC(=O)c2ccc(CN3CCN(C)CC3)cc2)cc1Nc1nccc(-c2cccnc2)n1
Cyclin-dependent kinase 5, with p25 (CDK5, Homo sapiens, UniProt Q00535): 98.1%
Serine/threonine-protein kinase 10 (STK10, Homo sapiens, UniProt O94804): 103%
Serine/threonine-protein kinase OSR1 (OXSR1, Homo sapiens, UniProt O95747): 101%
Protein kinase C alpha type (PRKCA, Homo sapiens, UniProt P17252): 98.2%
Death-associated protein kinase 1 (DAPK1, Homo sapiens, UniProt P53355): 104%
Protein kinase C beta type, isoform beta-I (PRKCB, Homo sapiens, UniProt P05771): 92.7%
Mitogen-activated protein kinase 9 (MAPK9, Homo sapiens, UniProt P45984): 95.2%
Serine/threonine-protein kinase Nek2 (NEK2, Homo sapiens, UniProt P51955): 98.7%
TGF-beta receptor type-2 (TGFBR2, Homo sapiens, UniProt P37173): 97.7%
Serine/threonine-protein kinase Chk2 (CHEK2, Homo sapiens, UniProt O96017): 99.1%

Set 2 — method: competition with immobilised ligand; tested at: 0.1 µM; endpoint: remaining binding
Compound: CC(C)CC(=O)N1CCc2nc(-c3ccc(Br)cc3)nc(N(C)Cc3ccccc3)c2C1
Dual specificity mitogen-activated protein kinase kinase 5 (MAP2K5, Homo sapiens, UniProt Q13163); cell-free assay: 98%
Macrophage-stimulating protein receptor (MST1R, Homo sapiens, UniProt Q04912); cell-free assay: 100%
Phosphatidylinositol 3-kinase C2 domain-containing subunit gamma (PIK3C2G, Homo sapiens, UniProt O75747); cell-free assay: 100%
Mitogen-activated protein kinase 7 (MAPK7, Homo sapiens, UniProt Q13164); cell-free assay: 100%
Tyrosine-protein kinase ABL1, non-phosphorylated (ABL1, Homo sapiens, UniProt P00519, F317I); binding: 100%
Phosphatidylinositol 4-phosphate 5-kinase type-1 gamma (PIP5K1C, Homo sapiens, UniProt O60331); cell-free assay: 85%
TGF-beta receptor type-2 (TGFBR2, Homo sapiens, UniProt P37173); cell-free assay: 97%
Serine/threonine-protein kinase B-raf (BRAF, Homo sapiens, UniProt P15056); cell-free assay: 100%
Mitogen-activated protein kinase 14 (MAPK14, Homo sapiens, UniProt Q16539); cell-free assay: 100%
Serine/threonine-protein kinase DCLK2 (DCLK2, Homo sapiens, UniProt Q8N568); cell-free assay: 100%
Dual specificity mitogen-activated protein kinase kinase 4 (MAP2K4, Homo sapiens, UniProt P45985); cell-free assay: 97%
Serine/threonine-protein kinase TAO1 (TAOK1, Homo sapiens, UniProt Q7L7X3); cell-free assay: 100%
Serine/threonine-protein kinase TNNI3K (TNNI3K, Homo sapiens, UniProt Q59H18); cell-free assay: 100%
Phosphatidylinositol 4,5-bisphosphate 3-kinase catalytic subunit alpha isoform (PIK3CA, Homo sapiens, UniProt P42336, I800L); cell-free assay: 98%
Homeodomain-interacting protein kinase 2 (HIPK2, Homo sapiens, UniProt Q9H2X6); cell-free assay: 100%

Set 3 — cell line: A-375; tested at: 100 µM; time: 18 h; endpoint: viability
CCNC(=O)[C@@H]1CCCN1C(=O)[C@H](CCCNC(=N)N)NC(=O)[C@H](CC(C)C)NC(=O)[C@@H](C)NC(=O)[C@H](Cc1ccc(O)cc1)NC(=O)[C@H](CO)NC(=O)[C@H](Cc1c[nH]c2ccccc12)NC(=O)[C@H](Cc1c[nH]cn1)NC(=O)[C@@H]1CCC(=O)N1: 89.7%
C[C@]12CC[C@H](O)CC1=CC[C@@H]1[C@@H]2CC[C@]2(C)C(c3cccnc3)=CC[C@@H]12: 88.9%
COc1cc2nc(N3CCN(C(=O)C4COc5ccccc5O4)CC3)nc(N)c2cc1OC (centres unmarked): 8.37%
CCC(=O)OCC(=O)[C@@]1(OC(=O)CC)[C@@H](C)C[C@H]2[C@@H]3CCC4=CC(=O)C=C[C@]4(C)[C@@]3(F)[C@@H](O)C[C@@]21C: 71.1%
CC(C)(O/N=C(\C(=O)N[C@@H]1C(=O)N2C(C(=O)[O-])=C(C[n+]3ccccc3)CS[C@H]12)c1csc(N)n1)C(=O)O: 101%
O[C@H](CNC[C@@H](O)[C@H]1CCc2cc(F)ccc2O1)[C@@H]1CCc2cc(F)ccc2O1: 8.64%

Further values, each from its own experiment
CC(=O)N[C@@H](Cc1c[nH]c2ccccc12)C(=O)N[C@@H](CCC(=O)C=[N+]=[N-])C(=O)OC(C)C — naive cells (refers to: CD44 CD62L; tetramer+ CD8+ T cells, mouse, draining lymph node; dose not given): 66.4% and 65.7% and 64.3% and 69.6% and 62.7% and 64.7% and 74.4%

Repeated from above (set 1):
Death-associated protein kinase 1 (DAPK1, Homo sapiens, UniProt P53355): 104%
Serine/threonine-protein kinase 10 (STK10, Homo sapiens, UniProt O94804): 103%
Serine/threonine-protein kinase Nek2 (NEK2, Homo sapiens, UniProt P51955): 98.7%
Serine/threonine-protein kinase OSR1 (OXSR1, Homo sapiens, UniProt O95747): 101%
